{"data": "Published values of several laboratories", "note": "A part holds a random share of what one study measured. Substitutions count along the parent as printed."}
{"data": "Series 1", "target": "CCNE2, cyclin fold, Cln2 fusion (human)", "method": "yeast growth competition, sequencing", "matrix": "yeast", "setting": "weak parent motif", "reference": "not given", "reading": "higher = stronger binding", "parent": "PKN2 docking peptide (human); VSAVQKLDFSDTM"}
{"Substitution": "S2V", "normalised enrichment score": 0.069}
{"Substitution": "V4L", "normalised enrichment score": 0.206}
{"Substitution": "F9W", "normalised enrichment score": -0.357}
{"Substitution": "K6F", "normalised enrichment score": -0.151}
{"Substitution": "T12R", "normalised enrichment score": 0.286}
{"Substitution": "T12F", "normalised enrichment score": 0.565}
{"Substitution": "T12W", "normalised enrichment score": 0.867}
{"Substitution": "A3P", "normalised enrichment score": 0.398}
{"Substitution": "D11T", "normalised enrichment score": 0.658}
{"Substitution": "L7R", "normalised enrichment score": -0.131}
{"Substitution": "V4Y", "normalised enrichment score": 0.086}
{"Substitution": "M13T", "normalised enrichment score": 0.31}
{"Substitution": "D8P", "normalised enrichment score": 0.429}
{"Substitution": "L7N", "normalised enrichment score": 0.245}
{"Substitution": "K6I", "normalised enrichment score": -0.309}
{"Substitution": "K6E", "normalised enrichment score": -0.208}
{"Substitution": "D11E", "normalised enrichment score": -0.61}
{"Substitution": "S2C", "normalised enrichment score": -0.273}
{"Substitution": "D11F", "normalised enrichment score": -0.167}
{"Substitution": "D8F", "normalised enrichment score": 0.0888}
{"Substitution": "S2Q", "normalised enrichment score": 0.312}
{"Substitution": "D11G", "normalised enrichment score": 0.706}
{"Substitution": "M13D", "normalised enrichment score": -0.191}
{"Substitution": "D8R", "normalised enrichment score": 0.258}
{"Substitution": "V4C", "normalised enrichment score": -0.236}
{"data": "Series 2", "target": "RNA binding protein fox-1 homolog 2, RRM domain, GST-SBP tag (RBFOX2, Homo sapiens, UniProt O43251-10, residues 100-194)", "method": "RNA Bind-n-Seq", "form": "RNA", "matrix": "in vitro", "concentration": "365 nM", "setting": "natural RNA segment, single round, ends assumed", "reference": "no-protein control", "reading": "higher = stronger binding", "Construct (chain)": "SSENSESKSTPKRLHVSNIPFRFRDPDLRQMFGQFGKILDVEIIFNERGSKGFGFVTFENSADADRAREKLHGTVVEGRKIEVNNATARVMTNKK"}
{"Strand": "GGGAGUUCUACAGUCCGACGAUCUUCUUCAUAGAGGAAACAAUGUGCCAGUCUUAUUCUUUUCUUCAACAACCUUGACUUCCAUGGAGGAAGUGCUGGCCCCAAGGGGUCUGACACAAAGACGGGAAACCCAGUGGAAUUCUCGGGUGCCAA", "RBNS enrichment (R)": 0.331}
{"Strand": "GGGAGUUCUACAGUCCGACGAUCCAUUUUGUUUCUUGUACAAUAUCUCAUGUGACCCAAACUUGAGACUCCAAACAGUACCUUUGCUUUGUUUGUACAAAAAUGAAGACCUAUAGCCAACACAAAGCAAAUGCUGGAAUUCUCGGGUGCCAA", "RBNS enrichment (R)": 0.573}
{"Strand": "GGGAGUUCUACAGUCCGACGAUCAAAAUCAAGUGGACUGAGUCAUUGAUAAAACAUUUCUAAGAGUGGGGCUAGAGAACAUACUUUACAUCUGACAUCCUUUGGCCUAACAACAUCUAUUAUUAUAGUGCUCAUGGAAUUCUCGGGUGCCAA", "RBNS enrichment (R)": 0.293}
{"Strand": "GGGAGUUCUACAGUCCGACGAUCGCACUGUGAAGAAUGAGAAGGGAAAAGCAAAAAUUAUCCUUGUGAAAUAUCUGCUGAUUGUGCCCUACUCUUUGCACCUGACUUUUCCUAGUUGUCCUGGUGCUAACACAUGGAAUUCUCGGGUGCCAA", "RBNS enrichment (R)": 0.325}
{"Strand": "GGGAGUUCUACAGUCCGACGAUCGAGUUUAUUAUAACUUAUUGUUCAUAUUCAUUUCUAAGUUAAUUUAAGUAAUCAUUUAUUAAGACAGAAUUUUGUAUAAACUAUUUAUUGUGCUCUCUGUGGAACUGAAGUGGAAUUCUCGGGUGCCAA", "RBNS enrichment (R)": 0.64}
{"Strand": "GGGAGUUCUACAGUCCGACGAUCGAAUGCUGUUCCAUUGUAUGGCUGUGUCAGAUUUUGUUUGUUCAUUCACCAGUUGAUAGACAUGUAGAUUGUUUUCAUGCUGCUGUGACCAUUUGUGUACAAGUGUUUGUUGGAAUUCUCGGGUGCCAA", "RBNS enrichment (R)": 0.424}
{"Strand": "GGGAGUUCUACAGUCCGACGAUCUGCUCAUCAGCCGCAACUUCCUGCCGACCCUGAUGCGGGUGGGCCGAGCAGUGUGGACAUCAGCCACUUUUUAUAUUCAUGUACAUUCACCUGGGGAAAAAAACGGAGGGUGGAAUUCUCGGGUGCCAA", "RBNS enrichment (R)": 0.441}
{"Strand": "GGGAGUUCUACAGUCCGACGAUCUGCAGGAUGAUAGAUCUAACUUAUCAAUGUACUGUCACAGUACAUUAAUCGUUUUAUUUGAGUAGGUAAACAAAUUUGCACACUUUUCCCCAGUGAAUUCCCAACACCUUUGGAAUUCUCGGGUGCCAA", "RBNS enrichment (R)": 0.919}
{"Strand": "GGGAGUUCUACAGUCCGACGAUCGUCCGGCUCUGCGUCUCCCUCUCUGCAGCCUGUGUAAGCUAUUAUAAUUAAAAUGGUUUUCCGGGAAGGGAUGAGUGUGAUGUCCUUGAGAGGAAAUGAAUGUCCUGGCCUGGAAUUCUCGGGUGCCAA", "RBNS enrichment (R)": 2.13}
{"Strand": "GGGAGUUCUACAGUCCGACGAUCGUAUACUGUGUUGAAGCCAGACAGAAAAGUAAUGGGGCCACUUCUGAAACCUCUCAGCUGUUGAUCUCACAGCAGCUAAAGGGUUGUGCCAAACAUUUUAUUAAGAAAGUUGGAAUUCUCGGGUGCCAA", "RBNS enrichment (R)": 0.594}
{"Strand": "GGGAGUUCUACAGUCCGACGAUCACAGCUGUGAGGGUGGCUAUUGAGUUCCUUCCAGUGUCUCAAGUCACAGGUGUGUGCAGUUGUGAAGAUCUCCAGGGAGACUCCAUCUUACCCUCCCCUUGUACUAAGAGUGGAAUUCUCGGGUGCCAA", "RBNS enrichment (R)": 0.337}
{"Strand": "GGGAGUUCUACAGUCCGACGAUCAUGGUUUGGUGGUCUUUAAUGUUUUGAAAAACGGAAGUGAUUAGAAGUUAAGUUACUGUUCAAAGUUGAAAAGCAUAUAUGCUACAUUUUCUGCUGAAAGGUGAUUAUAUUGGAAUUCUCGGGUGCCAA", "RBNS enrichment (R)": 0.564}
{"data": "Series 3", "target": "Sal-like protein 4, full length isoform B (SALL4, Homo sapiens, UniProt Q9UJQ4-2, residues 1-616)", "method": "universal PBM", "form": "double-stranded DNA, one strand shown", "matrix": "in vitro", "concentration": "not given", "setting": "8-mer, flanks averaged, mean of replicates", "reading": "higher = stronger binding", "Residues (chain)": "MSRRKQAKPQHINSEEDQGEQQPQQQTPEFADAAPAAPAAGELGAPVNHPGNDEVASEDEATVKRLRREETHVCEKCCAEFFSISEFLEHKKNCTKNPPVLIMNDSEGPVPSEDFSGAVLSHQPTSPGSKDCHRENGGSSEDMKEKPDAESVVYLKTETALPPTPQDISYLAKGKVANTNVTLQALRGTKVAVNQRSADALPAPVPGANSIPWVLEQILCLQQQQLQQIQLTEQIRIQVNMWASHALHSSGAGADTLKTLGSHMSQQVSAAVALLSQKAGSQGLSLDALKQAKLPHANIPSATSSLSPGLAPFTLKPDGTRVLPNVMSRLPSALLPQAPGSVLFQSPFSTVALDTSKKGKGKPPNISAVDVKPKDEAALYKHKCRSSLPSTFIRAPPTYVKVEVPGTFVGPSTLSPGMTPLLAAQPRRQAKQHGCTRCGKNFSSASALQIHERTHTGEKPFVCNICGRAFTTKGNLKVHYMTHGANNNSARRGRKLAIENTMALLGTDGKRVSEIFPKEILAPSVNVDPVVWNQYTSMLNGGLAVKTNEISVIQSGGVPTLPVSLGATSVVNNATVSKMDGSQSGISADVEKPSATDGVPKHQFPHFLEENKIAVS"}
{"Strand": "ATGACCAC", "E-score": -0.0866}
{"Strand": "AGCCGAAT", "E-score": -0.131}
{"Strand": "AAAACCAT", "E-score": 0.266}
{"Strand": "CGTATGTC", "E-score": 0.0273}
{"Strand": "GTATTACA", "E-score": 0.303}
{"Strand": "ACTGGCGC", "E-score": -0.224}
{"Strand": "ACACTCTA", "E-score": 0.104}
{"Strand": "AGTCTTCG", "E-score": -0.0863}
{"Strand": "AACACATC", "E-score": 0.132}
{"Strand": "GTAAATAA", "E-score": 0.327}
{"Strand": "ACCCAGAC", "E-score": -0.193}
{"Strand": "CCTTAGAG", "E-score": -0.151}
{"Strand": "AGTAAACG", "E-score": 0.0906}
{"Strand": "GAACTGAA", "E-score": 0.108}
{"Strand": "ATACTCGA", "E-score": 0.0647}
{"Strand": "GATTCAGA", "E-score": 0.0131}
{"Strand": "CGCGCAAG", "E-score": -0.155}
{"Strand": "ACATAGGG", "E-score": -0.0721}
{"Strand": "CTCAACAC", "E-score": 0.0058}
{"data": "Series 4", "target": "ATF5, bZIP domain (human)", "method": "DHFR protein complementation", "matrix": "yeast", "setting": "single substitutions, most at no-binding floor", "reference": "wild-type JUN-FOS pair", "reading": "higher = stronger binding", "parent": "JUN, bZIP domain (human); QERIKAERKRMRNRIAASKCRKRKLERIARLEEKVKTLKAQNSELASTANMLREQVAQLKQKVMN; partner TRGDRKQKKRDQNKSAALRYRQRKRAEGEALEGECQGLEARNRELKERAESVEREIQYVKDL"}
{"Substitution": "E32C", "binding fitness": "-1.52 natural log"}
{"Substitution": "A40R", "binding fitness": "-1.45 natural log"}
{"Substitution": "R30W", "binding fitness": "-1.36 natural log"}
{"Substitution": "K34D", "binding fitness": "-1.55 natural log"}
{"Substitution": "K34W", "binding fitness": "-1.28 natural log"}
{"Substitution": "V56R", "binding fitness": "-1.51 natural log"}
{"Substitution": "S47L", "binding fitness": "-1.53 natural log"}
{"Substitution": "V56L", "binding fitness": "-1.35 natural log"}
{"Substitution": "A29N", "binding fitness": "-1.17 natural log"}
{"Substitution": "R30V", "binding fitness": "-1.49 natural log"}
{"Substitution": "E32N", "binding fitness": "-1.5 natural log"}
{"Substitution": "E33C", "binding fitness": "-1.51 natural log"}
{"Substitution": "T48R", "binding fitness": "-1.46 natural log"}
{"Substitution": "T37C", "binding fitness": "-1.49 natural log"}
{"Substitution": "L38N", "binding fitness": "-1.49 natural log"}
{"Substitution": "T48Q", "binding fitness": "-1.5 natural log"}
{"Substitution": "E33H", "binding fitness": "-1.32 natural log"}
{"Substitution": "L45F", "binding fitness": "-1.48 natural log"}
{"note": "For quick reference, copied from above (series 1):"}
{"Substitution": "D8F", "normalised enrichment score": 0.0888}
{"Substitution": "T12F", "normalised enrichment score": 0.565}
{"Substitution": "M13D", "normalised enrichment score": -0.191}
{"Substitution": "D11E", "normalised enrichment score": -0.61}
{"Substitution": "K6F", "normalised enrichment score": -0.151}
{"Substitution": "T12W", "normalised enrichment score": 0.867}
